Measurements of several laboratories.
Each line is one published result; not all experiments were run side by side. ± marks the error that the study gave.

SMILES	tested on	test	test system	setting	quantity	result
CC(C)C[C@H](NC(=O)[C@H](CCC(=O)O)NC(=O)[C@H](C)NC(=O)[C@H](CC(C)C)NC(=O)[C@H](CCC(=O)O)NC(=O)[C@H](C)NC(=O)[C@H](CCC(N)=O)NC(=O)[C@H](CC(C)C)NC(=O)[C@H](CCC(=O)O)NC(=O)[C@H](Cc1ccc(O)cc1)NC(=O)[C@H](CC(C)C)NC(=O)[C@H](CCC(N)=O)NC(=O)[C@H](C)NC(=O)[C@H](CCC(=O)O)NC(=O)[C@H](CC(C)C)NC(=O)[C@H](CCC(N)=O)NC(=O)[C@H](C)NC(=O)[C@H](CC(C)C)NC(=O)[C@H](CCC(=O)O)NC(=O)[C@H](C)NC(=O)[C@@H](N)CCC(N)=O)C(N)=O	Micrococcus luteus	broth microdilution	ATCC 7468	24 h	MIC	> 250 µM
CCCCCC(=O)NCCCC[C@H](NC(=O)CCCCC)C(=O)N[C@@H](CCCCNC(=O)CCCCC)C(=O)NCC(=O)NCC(=O)NCC(=O)N[C@@H](CS)C(=O)N[C@@H](CCCNC(=N)N)C(=O)N[C@@H](CCCCN)C(=O)N1CCC[C@H]1C(=O)N[C@@H](CS)C(=O)N[C@@H](CCCNC(=N)N)C(=O)N[C@@H](CCCCN)C(=O)N1CCC[C@H]1C(N)=O	Candida albicans	broth microdilution	SP 3902, RPMI-1640	48 h, 30 °C	MIC	16 µM
CC1C=CC=CC(C)C2C=CC3CC(C)(O)C(Cl)C(C)C3C2C(=O)C(Cl)(Cl)C(=O)C(C)C(=O)O1 (stereo not drawn)	Staphylococcus aureus	–	MSSA clinical isolate, susceptible	–	MIC	0.05 µg/mL
[O-][N+]1=C(c2ccc(Cl)cc2)C2=NCCCCN2c2ccccc21	Fusobacterium nucleatum	–	–	–	MIC	0.25 to 0.5 µg/mL
CC[C@H](C)[C@H](NC(=O)[C@H](Cc1c[nH]c2ccccc12)NC(=O)[C@H](CCCCN)NC(=O)[C@H](CC(C)C)NC(=O)[C@@H](NC(=O)[C@@H](NC(=O)CNC(=O)[C@H](CCCCN)NC(=O)[C@H](Cc1c[nH]cn1)NC(=O)[C@H](CCCCN)NC(=O)[C@H](Cc1c[nH]c2ccccc12)NC(=O)[C@H](C)NC(=O)[C@H](CC(C)C)NC(=O)[C@H](CO)NC(=O)[C@@H](NC(=O)[C@H](Cc1ccc(O)cc1)NC(=O)[C@H](CCCCN)NC(=O)[C@H](CCC(N)=O)NC(=O)CNC(=O)[C@H](CCCCN)NC(=O)[C@@H](NC(=O)[C@H](C)NC(=O)[C@H](CC(C)C)NC(=O)[C@H](Cc1ccccc1)NC(=O)[C@H](CCC(N)=O)NC(=O)[C@@H](NC(=O)[C@H](CC(C)C)NC(=O)[C@H](CCCCN)NC(=O)[C@H](CCSC)NC(=O)[C@H](Cc1ccccc1)NC(=O)[C@H](C)NC(=O)[C@H](C)NC(=O)[C@@H](N)CCSC)[C@@H](C)CC)[C@@H](C)O)C(C)C)[C@@H](C)O)[C@@H](C)CC)C(=O)N[C@@H](CC(N)=O)C(N)=O	Micrococcus luteus	broth microdilution	ATCC 49732	24 h, 37 °C	MIC	6 µg/mL
CC[C@H](C)[C@@H]1NC(=O)[C@@H]([C@@H](C)O)NC(=O)CNC(=O)[C@H](CC(=O)O)NC(=O)CNC(=O)[C@H](CC(=O)O)NC(=O)CNC(=O)[C@H]2CCCCN2C(=O)[C@@H](NC(=O)[C@H](CC(=O)O)NC(=O)/C=C/CCCCCCCCCC(C)C)CNC(=O)[C@@H]2CCCN2C1=O	Staphylococcus aureus	broth microdilution	VISA LIM strain 2, Mueller-Hinton broth, Mg2+ 10 mg/L	16 h, with: Ca2+ 10 mM	MIC	2 µg/mL
CN[C@H](CC(C)C)C(=O)N[C@H]1C(=O)N[C@@H](CC(N)=O)C(=O)N[C@H]2C(=O)N[C@H]3C(=O)N[C@H](C(=O)N[C@H](C(=O)NCc4cn(CCCCC(=O)N[C@H](C(=O)N[C@@H](CCN)C(=O)N[C@H]5CCNC(=O)[C@H]([C@@H](C)O)NC(=O)[C@H](CCN)NC(=O)[C@H](CCN)NC(=O)[C@H](CC(C)C)NC(=O)[C@@H](CC(C)C)NC(=O)[C@H](CCN)NC5=O)[C@@H](C)O)nn4)c4cc(O)cc(O)c4-c4cc3ccc4O)[C@H](O)c3ccc(c(Cl)c3)Oc3cc2cc(c3O[C@@H]2O[C@H](CO)[C@@H](O)[C@H](O)[C@H]2O[C@H]2C[C@](C)(N)[C@H](O)[C@H](C)O2)Oc2ccc(cc2Cl)[C@H]1O	Staphylococcus simulans	broth microdilution	22, cation-adjusted Mueller-Hinton broth	–	MIC	0.012 µM
CCCCCCCCCC(=O)NCCCC[C@H](NC(=O)CCCCCCCCC)C(=O)N[C@@H](CCCCNC(=O)CCCCCCCCC)C(=O)NCC(=O)NCC(=O)NCC(=O)N[C@@H](CS)C(=O)N[C@@H](CCCNC(=N)N)C(=O)N[C@@H](CCCCN)C(=O)N1CCC[C@H]1C(=O)N[C@@H](CS)C(=O)N[C@@H](CCCNC(=N)N)C(=O)N[C@@H](CCCCN)C(=O)N1CCC[C@H]1C(N)=O	Candida albicans	broth microdilution	SP 3876, RPMI-1640	48 h, 30 °C	MIC	32 µM
CC(C)[C@H](NC(=O)C(NC(=O)CC[C@H](N)C(=O)O)C(O)C(N)=O)C(=O)N(C)CC(=O)N[C@H](Cc1c[nH]c2ccc([N+](=O)[O-])cc12)C(=O)NC[C@@H]1NC(=O)[C@@H](Cc2c[nH]c3ccc([N+](=O)[O-])cc23)NC1=O (stereo partly drawn)	Haemophilus influenzae	–	MAP7 multidrug resistant	18 h, 37 °C	MIC	1.6 µM
O=C1NC2(CC2)COc2ncc(F)cc2[C@H]2COCCN2c2ccn3ncc1c3n2	–	–	Sprague-Dawley rat, female, brain	oral, 10 mg/kg/day, 4 weeks, end of treatment	organ-to-body weight ratio	0.591 ± 0.082%
CCCCCCCCCCCC(=O)NCCCC[C@H](NC(=O)CCCCCCCCCCC)C(=O)N[C@@H](CCCCNC(=O)CCCCCCCCCCC)C(=O)NCC(=O)NCC(=O)NCC(=O)N[C@@H](CS)C(=O)N[C@@H](CCCNC(=N)N)C(=O)N[C@@H](CCCCN)C(=O)N1CCC[C@H]1C(=O)N[C@@H](CS)C(=O)N[C@@H](CCCNC(=N)N)C(=O)N[C@@H](CCCCN)C(=O)N1CCC[C@H]1C(N)=O	Candida albicans	broth microdilution	SP 3903, RPMI-1640	48 h, 30 °C	MIC	> 128 µM
CC[C@H](C)[C@H](NC(=O)[C@H](CCCCN)NC(=O)[C@H](CCCCN)NC(=O)[C@H](Cc1ccccc1)NC(=O)[C@H](Cc1ccccc1)NC(=O)[C@H](CCCCN)NC(=O)[C@H](CCCCN)NC(=O)[C@H](Cc1ccccc1)NC(=O)[C@H](CCCNC(=N)N)NC(=O)[C@@H](N)CCCCN)C(=O)N[C@@H](CCCCN)C(=O)N[C@@H](CCCCN)C(=O)N[C@@H](CO)C(=O)N[C@H](C(=O)N[C@@H](CCCCN)C(=O)N[C@@H](CCCCN)C(=O)N[C@@H](CCCNC(=N)N)C(=O)N[C@H](C(=O)N[C@@H](CCCCN)C(=O)N[C@@H](CCCCN)C(=O)N[C@@H](CC(C)C)C(=O)N[C@@H](Cc1ccccc1)C(=O)N[C@@H](CCCCN)C(=O)N[C@@H](CCCCN)C(=O)N1CCC[C@H]1C(=O)N[C@@H](CCCNC(=N)N)C(=O)N[C@H](C(=O)N[C@H](C(=O)N1CCC[C@H]1C(=O)N[C@H](C(=O)N[C@@H](CO)C(=O)N[C@H](C(=O)N1CCC[C@H]1C(=O)N[C@@H](Cc1ccccc1)C(=O)O)[C@@H](C)CC)[C@@H](C)CC)[C@@H](C)CC)C(C)C)C(C)C)C(C)C	Escherichia coli	broth microdilution	ATCC 25922	20 h	MIC	4 µg/mL
C[N+]1=C2C(c3ccccc3)=[N+]([O-])c3ccccc3N2CCC1	Fusobacterium nucleatum	–	–	–	MIC	2 to 16 µg/mL
CC[C@H](C)[C@H](NC(=O)[C@H](CCCNC(=N)N)NC(=O)[C@H](CC(=O)O)NC(=O)[C@H](CCCNC(=N)N)NC(=O)[C@H](CC(C)C)NC(=O)[C@H](CC(N)=O)NC(=O)[C@H](CCCNC(=N)N)NC(=O)[C@@H](N)Cc1ccccc1)C(=O)N[C@@H](CCCCN)C(=O)N[C@@H](CC(N)=O)C(=O)N[C@@H](CCCCN)C(=O)N[C@@H](Cc1ccccc1)C(=O)N[C@@H](CCC(=O)O)C(=O)N[C@@H](CC(N)=O)C(=O)N[C@@H](C)C(=O)N[C@@H](CC(C)C)C(=O)N[C@@H](CCCCN)C(=O)N[C@@H](CC(N)=O)C(=O)N[C@H](C(=O)N[C@H](C(=O)N[C@@H](CC(N)=O)C(=O)N[C@@H](CCCCN)C(=O)N[C@@H](CC(C)C)C(=O)N[C@@H](Cc1ccccc1)C(=O)N1CCC[C@H]1C(=O)O)[C@@H](C)CC)C(C)C	Bordetella bronchiseptica	broth microdilution	ATCC 10580	–	MIC	20.7 µM
CCCCCCCC(=O)NCCCC[C@H](NC(=O)CCCCCCC)C(=O)N[C@@H](CCCCNC(=O)CCCCCCC)C(=O)NCC(=O)NCC(=O)NCC(=O)N[C@@H](CS)C(=O)N[C@@H](CCCNC(=N)N)C(=O)N[C@@H](CCCCN)C(=O)N1CCC[C@H]1C(N)=O	Candida albicans	broth microdilution	fluconazole-resistant 56214, RPMI-1640	48 h, 30 °C	MIC	> 128 µM
